Measurements from different studies.
Protocols differ between the studies behind these lines. Several values in a cell are separate wells, animals, samples, runs or records. ± gives the spread as reported.

CC(C)[C@@H](CS(=O)(=O)C(C)C)N1C(=O)[C@@](C)(CC(=O)O)C[C@H](c2cccc(Cl)c2)[C@H]1c1ccc(Cl)cc1  median survival extension (mouse, subcutaneous PDX; 25 mg/kg, 4 weeks; relative to: vehicle): > 5 fold
CCCCCN1C[C@H](O)[C@@H](O)[C@H](O)[C@@H]1CO  median survival (Hexb-/- mice, female; 30 mg/kg/day): 150 days
CN1CCN(S(=O)(=O)c2cc([N+](=O)[O-])ccc2N(CCOS(C)(=O)=O)CCOS(C)(=O)=O)CC1  event-free survival (NSG mice, sample BI PDX; intraperitoneal, 25 mg/kg weekly x3): 40.3 days
CC(C)C[C@H](NC(=O)[C@H](CCC1CCCCC1)NC(=O)[C@@H]1CCCN1C(=O)c1ccc(F)cc1)C(=O)NC(C)(C)C(=O)N[C@@H](CC(C)C)C(=O)N[C@@H](CC(C)C)C(=O)NC(C)(C)C(=O)NC(C)(C)C(=O)NCCC(=O)NCCN(C)CC(F)F  calcein leakage (small unilamellar vesicles; concentration not given): 4.45%
C[C@H]1O[C@@H](O[C@H]2CC[C@@]3(C)[C@@H](CC[C@]4(C)[C@@H]3C=C[C@]35OC[C@@]6(CCC(C)(C)C[C@H]63)[C@@H](O)C[C@]54C)[C@]2(C)CO)[C@H](O)[C@@H](O[C@@H]2O[C@H](CO)[C@@H](O)[C@H](O)[C@H]2O)[C@H]1O  hepatic triglycerides (mouse, no ethanol, AAV8-TBG-Null, liver; dose not given, high dose): 0.0599 mmol/g protein and 0.0253 mmol/g protein and 0.0433 mmol/g protein and 0.0396 mmol/g protein and 0.0644 mmol/g protein and 0.0573 mmol/g protein
N.N.[Cl][Pt][Cl]  tumour volume (KSN/Slc nude mice, SAS xenograft; dose not given, day 8): 76.6 mm3 and 50.4 mm3 and 205 mm3 and 119 mm3 and 203 mm3 and 283 mm3 and 271 mm3 and 456 mm3
Nc1ncnc2c1ncn2[C@@H]1O[C@@H]2COP(=O)([S-])O[C@@H]3[C@H](O)[C@@H](COP([O-])(=S)O[C@H]2[C@H]1O)O[C@H]3n1cnc2c(N)ncnc21.[Na+].[Na+] (stereo partly shown)  complete response rate (C57BL/6J mouse B16-F10 melanoma; intratumoral, 1 mg/kg, three doses at 3-day intervals): 0%
C[C@H](NC(=O)c1c(C(F)F)nn(C)c1Oc1cccc(C(F)(F)F)c1)c1ccc(C(=O)O)cc1  deaths (human, advanced tumours; 125 mg): 0%
COc1cc2nccc(Oc3ccc(NC(=O)c4cc5c(n(-c6ccccc6)c4=O)CCCC5=O)nc3)c2cc1OC  median survival ratio (MOLM-13 luc/gfp xenograft, mice; diet, 0.004% in feed; relative to: control over treated): 0.75
CCc1c(C)nc(-c2ccc(Cl)s2)nc1Nc1ccc(CC(=O)O)cc1  liver to body weight ratio (mice, chronic ethanol plus binge; intraperitoneal, 0.3 mg/kg daily, ethanol diet 4 weeks, dosed last two; relative to: vehicle): no effect
CCCCC1(CCCC)CN(c2ccccc2)c2cc(SC)c(OCC(=O)N[C@@H](C(=O)NCC(=O)O)c3ccccc3)cc2S(=O)(=O)C1  serum HDL-C (refers to: HDL cholesterol; human, serum; 2.5 mg once daily, day 8): 55.8 mg/dL
c1ccc2c(c1)Nc1ccccc1S2  tumour volume (CT26 tumour-bearing mice; intraperitoneal, 100 mg/kg equivalents daily, day 7): 813 mm³
CC[C@H](C)[C@@H]1NC(=O)[C@@H]2CCCN2C(=O)[C@H](CC(C)C)NC(=O)[C@H](CC(C)C)NC(=O)CNC(=O)[C@@H](NC(=O)[C@@H](NC(=O)[C@H](CC(=O)O)NC(=O)CNC(=O)[C@@H](NC(=O)[C@H](C)NC(=O)CNC(=O)[C@H](CCCCN)NC(=O)[C@H](CC(C)C)NC(=O)[C@H](CC(C)C)NC(=O)[C@H](CCCCN)NC(=O)CNC(=O)[C@@H](NC(=O)[C@@H](N)CC(C)C)C(C)C)C(C)C)C(C)C)CSSC[C@@H](C(=O)O)NC1=O  log2 fold change (RNA-seq, refers to: Tmem79; mouse, traumatic brain injury model, frontal cortex and hippocampus; dose not given; relative to: TBI alone): -1.47
C[C@]1(CO)Cc2ncn(-c3ccc(C#N)c(Cl)c3)c2C(=O)O1  urinary potassium excretion 0-24 h (Chinese subjects; 20 mg single dose): 33.8 mmol
[131I-].[Na+]  1-year survival rate (human, papillary thyroid carcinoma; dose not given, high-dose radioiodine therapy): 95%
O=C(O)CNC(=O)c1cc2ccccc2n1Cc1ccc(C2CC2)c2ccccc12  serum uric acid decrease (mouse, acute hyperuricaemia model; oral, 2 mg/kg; relative to: model control): 63.5%
O=C(O)/C=C/C(=O)O.Oc1cccc2[nH]cc(CCNCc3ccccc3)c12  distance travelled (C57BL/6J mice; subcutaneous, 10 mg/kg, 30 min): 1880 ± 295 cm
Cc1c(C(=O)O)ccc2c3n(nc12)[C@@H]1[C@H](C3)N(CC2CC2)[C@@]2(C(=O)Nc3cc(Cl)ccc32)[C@H]1c1cccc(Cl)c1F  median survival (mice, orthotopic PDX, MDM2 non-amplified; weekly, 2 mg/kg, for 12 weeks): 63 days
Cc1cn(-c2cc(NC(=O)c3ccc(C)c(Nc4nccc(-c5cccnc5)n4)c3)cc(C(F)(F)F)c2)cn1  ADAS-Cog maze errors change (human patients; dose not given, 6 months vs baseline, unit not given; relative to: placebo): 0
